Measured values pooled from the literature.
Every numbered part comes from another study and shows a few of its results, in no order. Positions count from the first letter of the parent shown.

Sample 1
Target: Interferon regulatory factor 7, full length, phosphomimetic (IRF7, Homo sapiens, UniProt Q92985, residues 1-503, S101K/S471D/S472D/S475D/S476D/S477D/S483D/S484D/S487D)
UniProt Q92985, sequence (whole entry, unmodified, looked up): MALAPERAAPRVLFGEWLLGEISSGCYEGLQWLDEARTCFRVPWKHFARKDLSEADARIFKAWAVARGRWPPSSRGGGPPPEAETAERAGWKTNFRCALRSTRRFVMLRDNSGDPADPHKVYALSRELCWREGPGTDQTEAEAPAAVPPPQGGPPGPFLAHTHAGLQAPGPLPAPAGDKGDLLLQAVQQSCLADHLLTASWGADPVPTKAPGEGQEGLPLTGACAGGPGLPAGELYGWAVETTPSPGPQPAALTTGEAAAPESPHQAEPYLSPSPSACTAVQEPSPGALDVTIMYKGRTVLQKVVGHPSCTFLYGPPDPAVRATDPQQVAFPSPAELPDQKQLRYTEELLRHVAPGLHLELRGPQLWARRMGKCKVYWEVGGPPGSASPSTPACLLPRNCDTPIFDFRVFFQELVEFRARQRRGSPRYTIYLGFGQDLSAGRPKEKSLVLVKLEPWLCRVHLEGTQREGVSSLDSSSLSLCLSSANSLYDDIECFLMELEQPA
Method: protein-binding microarray
Form: double-stranded DNA, one strand shown
Medium: in vitro
Tested at: 250 nM
Setting: 60-bp whole probe
With: salmon DNA 0.4 mg/ml
Baseline: random background probes
Direction: higher = stronger binding
Endpoint: log fluorescence
All sequences stand within: GCCTAGCAC … GTCTTGATTCGCTTGACGCTGCTG
TCAAGTATTTATCTGCAACTGTGCTAG: 0.21 z-score
TCAATTTTGGTTTTCATACTGTGCTAG: 1.25 z-score
GACGGACTGCTTCTCCTGGCGTGCTAG: -0.116 z-score
TCAACTTTGGAGATGACACTGTGCTAG: -0.104 z-score
GACGGTTTCGACACTGGGGTCGTGCTA: 3.73 z-score
TTTTTTTTACTTCGGGTGACGTGCTAG: 0.633 z-score
TTAGGACTGGTTTTCGGTTAGTGCTAG: 3.56 z-score
TTAGATTTCATACTGGATTAGTGCTAG: 0.12 z-score
GCCGGACTGCTTCTCCTGACGTGCTAG: -0.289 z-score
TTAGGTTTCCCTTCCCTTTAGTGCTAG: 3.22 z-score
TTAGATAACGGGACTGGATTAGTGCTA: 0.0181 z-score
TTAGGTTTCTTTATCCTTTAGTGCTAG: 2.79 z-score
GACGGTATCGGGTATCGGGCCGTGCTA: -0.0987 z-score
CACCAGCGAGGGCCCGGGAGGTGCTAG: -0.258 z-score
GACGGTATCGGGACTGGGGCCGTGCTA: -0.588 z-score
TCAGATTTTGGTCTTTCACTGTGCTAG: 0.0159 z-score
GACGAACTGAATTTCGAGACGTGCTAG: 0.123 z-score
TTAGGTATCGGACTGGGTTGGTGCTAG: 0.142 z-score
TTAGGACTGGTCTATCGGTTAGTGCTA: -0.533 z-score
TTAGATATGAGTCTCGATTAGTGCTAG: 1.43 z-score
TCAACTTTCTTTCAAATACTGTGCTAG: 0.397 z-score
GACGGTCTCCTTACCCTGACGTGCTAG: 0.0982 z-score

Sample 2
Target: RING finger protein unkempt homolog, zinc fingers 1-6, GST-SBP tag (UNK, Homo sapiens, UniProt Q9C0B0, residues 30-357)
UniProt Q9C0B0, sequence (30-357, looked up): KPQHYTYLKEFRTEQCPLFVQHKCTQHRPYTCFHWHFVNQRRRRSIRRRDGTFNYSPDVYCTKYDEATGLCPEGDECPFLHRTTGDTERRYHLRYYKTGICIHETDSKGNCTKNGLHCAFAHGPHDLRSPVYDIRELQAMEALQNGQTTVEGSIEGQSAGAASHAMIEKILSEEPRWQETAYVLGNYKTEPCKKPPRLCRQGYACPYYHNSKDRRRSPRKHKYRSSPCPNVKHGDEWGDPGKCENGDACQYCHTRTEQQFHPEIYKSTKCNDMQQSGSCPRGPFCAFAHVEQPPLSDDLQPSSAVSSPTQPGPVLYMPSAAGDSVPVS
Method: RNA Bind-n-Seq
Form: RNA
Medium: in vitro
Tested at: not given
Setting: RNA with constant flanks, human-mouse chimeric sites, ends assumed
Baseline: input RNA pool
Direction: higher = stronger binding
Endpoint: bound/input enrichment
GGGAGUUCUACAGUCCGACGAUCGUGCCCUUCUCGCUGCUGCGGAGCCCGAGCUGGGAACCAUUCCGGGACGACUGGUACGCACACAGCCGCCUCUUCGAUCAAGCUUUCGGGGUGCCCCGGUUGCCCGAGGAGUGGUCGCAGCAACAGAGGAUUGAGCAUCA: 0.0916 ratio
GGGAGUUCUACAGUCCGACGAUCAAAGAACCUCUCUCUGAUGAAGAUGAGGAAGACAAUGAUGAUGUUGAACCCAUUUCUGAAUUUAGAUUUGUGCCCAGUGAUAAGUCAGCAUUGGAGGCAAUGUUCACAGCAAUGUGUGAGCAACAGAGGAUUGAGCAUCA: 0.468 ratio
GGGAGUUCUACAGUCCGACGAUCCACACACUCUUCUGCGGGACCCUCAUCUUGCAGGCCCGGGCCUAUGUGGGACCGCACGUGCUAGCAGUGGUGACCCGGACAGGGUUCUGCACGGCAAAAGGGGGCCUGGUGAGCUCCAUCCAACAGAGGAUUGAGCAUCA: 0.144 ratio
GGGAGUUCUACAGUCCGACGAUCCUUAUGGCUGCAGAAACAGGAAGUGGAAAAACUGGUGCAUUUAGUAUUCCCGUUAUCCAGAUAGUGUAUGAAACUCUGAAAGACCAACAGGAAGGAAAGAAAGGGAAAACAACUAUUAAACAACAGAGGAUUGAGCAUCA: 0.66 ratio
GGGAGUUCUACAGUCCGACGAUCGAGUCGAGCAAACUUGAAACAAUUCGUUUUACAAAAACCUCAGUGUUCACUUGCUUGGCGAUAGCAUUGGGGUUUUAUAGGUUCUGGAAGGAGAACUGACGAUGAUGUCCUGCUGUGUGCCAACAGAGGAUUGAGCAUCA: 0.135 ratio
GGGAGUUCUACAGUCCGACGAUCAACUUUGUGCAUCGGUUUCCCUUUGUAGCUGUUUCAAUUGGCUUCCUUGUGAAUAAAGAGAUGGAGUUUGGAAUUGUGUACAGUUGUGUGGAAGAUAAGAUGUACACCGGCAGGAAAGGGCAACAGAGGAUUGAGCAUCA: 0.403 ratio
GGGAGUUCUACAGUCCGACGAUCAGAGCCCAGGACGUUGAUGCUACAAAUCCAAAUUACGAAAUUAUGUGUAUGAUCAGAGACUUCAGAGGAAGUUUGGAUUACAGACCCCUAACAACAGCAGAUCCUAUUGAUGAACAUAGGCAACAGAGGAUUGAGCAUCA: 0.518 ratio
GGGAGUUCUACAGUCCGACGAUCAAAGAGAAACUAAAGCAACUAAUAGAGAAGAGGAUUGGCAAAGAGAAUUUCAUAGAGAAACUAGGAUUUUAUUAGCAACAUGAGUUAUAUUCCAGAGCGUCUCAGAAAACCCCAGCCAACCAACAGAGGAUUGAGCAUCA: 8.42 ratio
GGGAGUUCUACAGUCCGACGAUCUCGGAUGCUGUGCUGGGUCACUUUCCGUAUCCAGAUCCUUCCCAGUGGACAGAUGAAGAACUGGGAAUCCCUCCUGAUGACGAGGACUGACACUGUAAACUCUCUGGACGAGUAGGAGCACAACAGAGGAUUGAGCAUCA: 0.569 ratio
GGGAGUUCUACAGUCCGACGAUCGUCAACAGUUGUCUCAACCCCAUCCUCUACGCCUUCCUGGAUGAGAACUUCAAGGCCUGCUUCCGCAAGUUCUGCUGUGCAUCUGCCCUGCGCCGGGACGUGCAGGUGUCUGACCGCGUGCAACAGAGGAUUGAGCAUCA: 0.377 ratio
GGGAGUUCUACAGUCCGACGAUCAAAGAACUACUGAGGCAAGGCAGCAAAUUUAGGAGAGACAUUUCAACACUAUUAAUAGAGUUAGGAUUCCAAAUUAAAAAGAAAACUAAAAGAUUGUACAUCAACAAAGCCAAUGUGUGGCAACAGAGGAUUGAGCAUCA: 3.65 ratio

Sample 3
Target: Histone acetyltransferase KAT6A, both winged helices, GST fusion (KAT6A, Homo sapiens, UniProt Q92794, residues 1-181)
Method: protein binding microarray
Form: double-stranded DNA, one strand shown
Medium: in vitro
Tested at: not given
Setting: 8-mer, flanks averaged, mean of 2 arrays, mostly near background
Baseline: not given
Direction: higher = stronger binding
Endpoint: E-score
Target sequence (chain): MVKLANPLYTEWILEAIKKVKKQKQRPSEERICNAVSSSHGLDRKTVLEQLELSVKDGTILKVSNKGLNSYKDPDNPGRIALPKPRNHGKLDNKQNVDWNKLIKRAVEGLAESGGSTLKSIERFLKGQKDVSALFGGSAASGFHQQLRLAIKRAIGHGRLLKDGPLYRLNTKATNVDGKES
GGCCGTAC: 0.255
AGACCCAG: -0.211
GCGGCCGC: 0.42
GCGTCGGA: 0.289
AGTTACTA: -0.133
AAAATGTA: -0.0866
ATCCACCG: 0.0249
AGCATGTC: 0.0271
CCGGTTCA: 0.141
ATCTAACG: 0.0572
CTCGCCGC: 0.287
ACGGGGAC: 0.151
GCTAGTCC: 0.0236
CACTCGAC: -0.0415
GTTTCATA: 0.0206
GTTCCGCA: 0.215
GACAAGAA: -0.00998
CTATGGCC: -0.0489
AACATGCT: -0.0294
CTCTCACA: -0.0574
ATTCGGCC: 0.0939
GAGAGGTA: -0.192
ATAATAAC: -0.0182
AATGGCAA: -0.0459

Sample 4
Target: CCNE1, cyclin fold, Cln2 fusion (human)
Method: yeast growth competition, sequencing
Medium: yeast
Setting: weak parent motif
Baseline: not given
Direction: higher = stronger binding
Endpoint: normalised enrichment score
Parent: CDC6 docking peptide (human); TLKGRRLVFDNQL
Q12S: -0.112
R6A: -0.266
G4R: 0.91
L13C: 1.43
Q12D: 1.08
V8Y: 0.417
L2P: 0.406
K3L: 0.734
R5V: 0.778
G4T: 0.0921
G4D: 0.41
R5A: 0.209
L13V: 0.375
R6K: -0.103
N11W: 1.35
R5H: -0.445
T1Y: 0.16
T1P: 1.18
D10H: 0.619
Q12P: -0.0359
R6Q: -0.0284
F9T: 0.111
T1S: 0.719
F9P: 0.52
R6L: 0.388

Sample 5
Target: RNA binding protein fox-1 homolog 2, RRM domain, GST-SBP tag (RBFOX2, Homo sapiens, UniProt O43251-10, residues 100-194)
Method: RNA Bind-n-Seq
Form: RNA
Medium: in vitro
Tested at: 365 nM
Setting: natural RNA segment, single round, ends assumed
Baseline: no-protein control
Direction: higher = stronger binding
Endpoint: RBNS enrichment (R)
Construct (chain): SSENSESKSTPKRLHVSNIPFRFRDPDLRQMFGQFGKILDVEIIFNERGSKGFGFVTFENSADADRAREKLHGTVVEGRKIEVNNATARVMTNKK
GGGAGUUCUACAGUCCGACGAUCGCAUCUAUUUUCCAUAUAGUCAUCAAGAGACCAUUUUAUAAAACAUGGUAAGACCCUUUUUAAAACAAACUCCAGGCCCUUGGUUGCGGGUCGCUGGGUUAUUGGGGCAGUGGAAUUCUCGGGUGCCAA: 0.906
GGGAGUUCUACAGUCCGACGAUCUAAUAGCUCCUUUCUCCUUCCUCUGAUUUUUAUAUGCUGCUAAAUAUAUUUUAAAUAUACUGUGUUUGCACACACUGGUAGCUAUGUGUUUGCACACAUUGGUAGACUGUUGGAAUUCUCGGGUGCCAA: 0.607
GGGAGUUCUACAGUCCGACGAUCGGUCUUUGCCAUCAAGGGUAUUUGGGUGACAUUUCAAAAUUUGUCCUCAUUAAAUGGAUGGGUGGGCCUUUUUAGUGCUUUGGAGCCUUGGCAGAUGUCAGGGAGGAAUAUGGAAUUCUCGGGUGCCAA: 1.31
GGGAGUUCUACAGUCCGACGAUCAAGCCUUGUGGCUGUGCUGUCAUGCCUAGGAUAGCAUUCAACAUAACUUUAACAAAAUUAAACAUUCAAAAAGGCUUAGACUACUCCCAAUCAUUAAAGUAGGACCACACUGGAAUUCUCGGGUGCCAA: 0.68
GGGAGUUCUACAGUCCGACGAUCCUGCAGUUGGGAACGGUGAUCUUCUUGAAUGAUGUUUCAGUGUGCAAAAACUAUAGAGCCUGUCAGCACCAAAGCUGACAGAAGUUAUACCUUACUCCUUUCCUUUCCCCUGGAAUUCUCGGGUGCCAA: 0.605
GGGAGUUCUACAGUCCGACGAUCCUAGCUUCCUGUGGGUCAGGAGUGCAGAGCCACAGCCCACCCUGAACUGUCUGUGCCAGUGAGCGCCAAGGAGAAGGAAAACCUGCCUUAGCCCGAGGGUAGAAGUUGAUUGGAAUUCUCGGGUGCCAA: 0.503
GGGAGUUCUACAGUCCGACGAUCGCCCGCCCCUGCCCCGCUCUGGGGCCCUCCAGACCUGCUCGGGUGCUGGGGCCAUGCCGAGUCGCGGCCCUGCUCAGCCGGAAGAGGCUCCCGGACCUGGAUGUACAGGGUGGAAUUCUCGGGUGCCAA: 0.263
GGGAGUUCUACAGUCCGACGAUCGGAGAUGGCUGGGACCACUGCACAGGAGGGCGCAGCCUGGCGUCGCCAUGAAAGUUGUCUCUGUGCCAUCUCUCCGGUCCUUGAGGAGAGCCCAGAAAGAUUUUAGGACCUGGAAUUCUCGGGUGCCAA: 0.275
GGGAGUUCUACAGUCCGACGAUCCUUCCCUCCUGUAAUUAUUUUCUAUUUUUGUAAACUUGUUGCAUUUUUAUAUGAUUUUCUUGACUGCACGUUGGCCAGAAGGACUGCUGGCCUGGCCUCCUUUCCGUCCGUGGAAUUCUCGGGUGCCAA: 4.83
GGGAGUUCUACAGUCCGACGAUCAGCAAUUGUGGGUUUUGAGCUCCAUAUACUCUUAGCAAGUAAGGGGGCGUCUUGCCCCUAUAUAUCAUCUUCCCGGAUUCCACUCCCUGUUGUGGGAAUCGCGCCCACCCUGGAAUUCUCGGGUGCCAA: 0.453
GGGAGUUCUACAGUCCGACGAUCCUCUUGGUCCUCAUAAUGGGCAAAGGAUACAACGAAGGCAGGUUGUAUAGGGGUUAUAGUGGGGAAGUGGAUAGGGGAUUCAUUUUCUUAUGUGACAUUUUGCCUUAAGAUGGAAUUCUCGGGUGCCAA: 1.23
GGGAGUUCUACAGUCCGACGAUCACCCUCUGCCCAGGGAGUCCUUGCGUCCCAUGAGGUCUUCCCGCAAGGCCUCUCAGACCCAGAUGUGACGGGGUGUGUGGCCCGAGGAAGCUGGACAGCGGCAGUGGGCCUGGAAUUCUCGGGUGCCAA: 0.39

For quick reference, copied from above (sample 4):
G4D: 0.41
R5A: 0.209
L13V: 0.375
R6K: -0.103
N11W: 1.35
R5H: -0.445
T1Y: 0.16
T1P: 1.18
